Published values of several laboratories.
Each line is one published result; not all experiments were run side by side. Several values in a cell are separate wells, animals, samples, runs or records. ± gives the spread as reported.
FURIN: Furin (FURIN, Homo sapiens, UniProt P09958)
PTPN1: Tyrosine-protein phosphatase non-receptor type 1 (PTPN1, Homo sapiens, UniProt P18031)
HLA class I histocompatibility antigen, A alpha chain allele A*80:01: HLA class I histocompatibility antigen, A alpha chain, allele A*80:01 (Homo sapiens, UniProt P04439)
MCA2: Metacaspase-2 (MCA2, Trypanosoma brucei brucei, UniProt Q585F3)
HLA class I histocompatibility antigen, A alpha chain allele A*26:03: HLA class I histocompatibility antigen, A alpha chain, allele A*26:03 (Homo sapiens, UniProt P04439)

Amino acid sequences for entries named in this document (tags omitted). Residues count along the entry.
UniProt P09958, whole entry, looked up: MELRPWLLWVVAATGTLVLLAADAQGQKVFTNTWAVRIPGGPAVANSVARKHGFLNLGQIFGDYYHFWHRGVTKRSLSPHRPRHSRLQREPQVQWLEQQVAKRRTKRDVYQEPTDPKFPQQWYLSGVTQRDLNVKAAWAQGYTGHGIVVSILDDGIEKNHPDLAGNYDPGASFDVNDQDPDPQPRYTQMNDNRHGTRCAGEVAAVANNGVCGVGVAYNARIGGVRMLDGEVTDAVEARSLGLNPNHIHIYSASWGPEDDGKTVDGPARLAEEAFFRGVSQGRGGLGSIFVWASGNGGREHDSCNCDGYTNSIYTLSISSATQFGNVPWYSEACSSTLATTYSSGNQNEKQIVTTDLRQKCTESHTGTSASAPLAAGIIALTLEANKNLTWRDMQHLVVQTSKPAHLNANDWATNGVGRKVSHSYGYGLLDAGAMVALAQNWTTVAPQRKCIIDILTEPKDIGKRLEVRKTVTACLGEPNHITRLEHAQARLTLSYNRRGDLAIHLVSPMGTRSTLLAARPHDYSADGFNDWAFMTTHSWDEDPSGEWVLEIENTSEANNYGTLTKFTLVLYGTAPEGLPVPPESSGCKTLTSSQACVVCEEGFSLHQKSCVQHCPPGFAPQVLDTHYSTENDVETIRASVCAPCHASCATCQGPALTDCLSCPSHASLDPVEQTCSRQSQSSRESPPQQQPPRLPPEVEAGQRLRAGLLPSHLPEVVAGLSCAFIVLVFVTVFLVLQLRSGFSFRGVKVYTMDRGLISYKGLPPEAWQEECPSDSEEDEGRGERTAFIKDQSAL
UniProt P18031, 1-321 limits assumed: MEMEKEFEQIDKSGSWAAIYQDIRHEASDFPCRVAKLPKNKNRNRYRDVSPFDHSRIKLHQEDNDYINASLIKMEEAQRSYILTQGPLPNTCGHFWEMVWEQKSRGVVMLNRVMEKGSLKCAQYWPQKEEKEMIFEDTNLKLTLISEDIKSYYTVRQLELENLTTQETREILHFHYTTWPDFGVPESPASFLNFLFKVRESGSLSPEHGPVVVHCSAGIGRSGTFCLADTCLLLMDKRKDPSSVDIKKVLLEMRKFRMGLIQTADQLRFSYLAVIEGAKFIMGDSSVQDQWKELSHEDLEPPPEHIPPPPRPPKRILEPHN
UniProt P18031, whole entry: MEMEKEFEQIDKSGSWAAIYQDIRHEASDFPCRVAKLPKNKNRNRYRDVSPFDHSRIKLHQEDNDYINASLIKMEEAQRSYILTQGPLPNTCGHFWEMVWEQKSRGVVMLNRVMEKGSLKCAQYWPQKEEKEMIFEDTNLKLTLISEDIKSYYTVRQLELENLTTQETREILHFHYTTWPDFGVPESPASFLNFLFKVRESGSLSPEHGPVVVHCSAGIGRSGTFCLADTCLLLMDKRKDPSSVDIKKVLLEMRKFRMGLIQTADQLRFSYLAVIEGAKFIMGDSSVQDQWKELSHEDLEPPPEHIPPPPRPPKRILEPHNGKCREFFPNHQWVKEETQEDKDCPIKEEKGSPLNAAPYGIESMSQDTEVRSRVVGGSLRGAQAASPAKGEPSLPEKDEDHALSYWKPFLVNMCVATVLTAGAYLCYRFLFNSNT
UniProt Q585F3, whole entry, looked up: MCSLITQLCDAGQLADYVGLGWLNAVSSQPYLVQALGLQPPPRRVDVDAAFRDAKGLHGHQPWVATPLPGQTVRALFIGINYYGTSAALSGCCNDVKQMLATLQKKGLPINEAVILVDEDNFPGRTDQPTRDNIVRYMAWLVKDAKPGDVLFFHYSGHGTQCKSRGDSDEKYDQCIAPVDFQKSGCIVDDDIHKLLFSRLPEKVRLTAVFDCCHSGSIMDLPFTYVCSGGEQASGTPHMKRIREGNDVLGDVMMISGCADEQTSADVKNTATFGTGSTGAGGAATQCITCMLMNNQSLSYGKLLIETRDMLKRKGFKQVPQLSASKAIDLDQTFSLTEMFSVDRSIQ
UniProt P20035, whole entry: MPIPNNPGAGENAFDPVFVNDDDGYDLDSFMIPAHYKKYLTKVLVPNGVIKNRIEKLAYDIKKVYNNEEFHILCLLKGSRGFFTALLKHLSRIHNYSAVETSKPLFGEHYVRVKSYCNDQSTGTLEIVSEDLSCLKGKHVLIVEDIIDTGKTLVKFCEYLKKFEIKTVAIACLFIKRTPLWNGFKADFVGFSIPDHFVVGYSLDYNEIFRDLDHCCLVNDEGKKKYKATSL
UniProt Q2FXS9, whole entry: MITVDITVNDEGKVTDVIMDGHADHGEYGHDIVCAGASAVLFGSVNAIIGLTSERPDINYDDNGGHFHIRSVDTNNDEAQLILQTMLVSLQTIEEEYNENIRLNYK
UniProt P46098, 24-478 limits assumed: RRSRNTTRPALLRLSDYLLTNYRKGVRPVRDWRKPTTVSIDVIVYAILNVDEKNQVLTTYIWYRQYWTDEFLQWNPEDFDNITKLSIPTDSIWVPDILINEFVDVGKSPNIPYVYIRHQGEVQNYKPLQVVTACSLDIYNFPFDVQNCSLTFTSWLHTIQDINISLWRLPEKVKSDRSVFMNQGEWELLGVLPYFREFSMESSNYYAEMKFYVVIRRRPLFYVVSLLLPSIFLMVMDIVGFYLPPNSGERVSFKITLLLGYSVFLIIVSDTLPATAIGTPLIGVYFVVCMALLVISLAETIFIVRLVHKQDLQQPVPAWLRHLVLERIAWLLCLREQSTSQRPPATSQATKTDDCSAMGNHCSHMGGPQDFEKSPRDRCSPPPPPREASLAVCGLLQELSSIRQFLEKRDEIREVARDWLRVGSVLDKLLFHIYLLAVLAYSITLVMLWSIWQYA
UniProt P18433, 224-802 limits assumed: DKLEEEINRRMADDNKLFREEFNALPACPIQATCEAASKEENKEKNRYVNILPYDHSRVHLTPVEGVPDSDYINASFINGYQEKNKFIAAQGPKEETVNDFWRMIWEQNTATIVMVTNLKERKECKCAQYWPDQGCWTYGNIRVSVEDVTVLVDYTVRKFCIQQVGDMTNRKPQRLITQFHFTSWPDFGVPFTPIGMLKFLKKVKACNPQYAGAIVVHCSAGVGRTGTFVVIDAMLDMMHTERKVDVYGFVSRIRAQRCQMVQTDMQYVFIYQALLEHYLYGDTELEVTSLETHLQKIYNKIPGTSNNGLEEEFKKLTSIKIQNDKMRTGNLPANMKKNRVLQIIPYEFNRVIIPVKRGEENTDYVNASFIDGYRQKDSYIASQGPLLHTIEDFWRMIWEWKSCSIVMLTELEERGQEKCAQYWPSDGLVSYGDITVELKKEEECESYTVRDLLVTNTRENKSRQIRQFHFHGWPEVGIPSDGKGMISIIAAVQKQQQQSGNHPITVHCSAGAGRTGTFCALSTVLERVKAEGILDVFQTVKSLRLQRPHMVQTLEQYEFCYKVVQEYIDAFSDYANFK

N#Cc1c(-c2ccc(Cl)cc2Cl)n(-c2nc(-c3ccc(Cl)cc3)c3c(NC(=O)c4ccccc4)nnc-3[nH]2)[nH]c1=O — CC50 (RPMI-8226; SRB): > 100 µM
O=c1[nH]cnc2c(CNCCCP(=O)(O)O)c[nH]c12 — selectivity ratio (Hypoxanthine-guanine-xanthine phosphoribosyltransferase (Plasmodium falciparum, UniProt P20035); relative to: Ki human HGPRT over Ki Hypoxanthine-guanine-xanthine phosphoribosyltransferase): 466 fold and ~500 fold
CC(C)C[C@H](NC(=O)c1ccccc1N)C(=O)N[C@@H](CCCCN)C(=O)N[C@@H](CCCNC(=N)N)C(=O)N[C@@H](CCCNC(=N)N)C(=O)N[C@@H](CCCCN)C(=O)N[C@@H](CCCNC(=N)N)C(=O)N[C@@H](C)C(=O)N[C@H](C(=O)N[C@@H](CC(N)=O)C(=O)N1CCC[C@H]1C(=O)N[C@@H](CCC(N)=O)C(=O)NCCNc1ccc([N+](=O)[O-])cc1[N+](=O)[O-])C(C)C — kcat (FURIN; substrate; pH 7): 1 s⁻¹
CC(=O)N[C@@H](CCCNC(=N)N)C(=O)N[C@H](C(=O)N[C@@H](CC(C)C)C(=O)N[C@@H](C)C(=O)N[C@@H](C)C(=O)N[C@@H](Cc1ccc(OP(=O)(O)O)cc1)C(=O)N[C@@H](CCCNC(=N)N)C(=O)N[C@@H](Cc1ccccc1)C(=O)N[C@@H](CCC(N)=O)C(=O)N[C@@H](CCCCN)C(N)=O)[C@@H](C)O — kcat/Km (PTPN1; substrate, continuous UV; pH 7.4): 220000 M⁻¹ s⁻¹
CSCC[C@H](NC(=O)[C@H](C)NC(=O)[C@@H]1CCCN1C(=O)[C@H](CCC(N)=O)NC(=O)[C@@H]1CCCN1C(=O)[C@H](CC(=O)O)NC(=O)[C@H](Cc1c[nH]c2ccccc12)NC(=O)[C@H](C)NC(=O)[C@@H](N)CCCNC(=N)N)C(=O)O — z-score (HLA class I histocompatibility antigen, A alpha chain allele A*80:01; direction not given): 0.38
CC[C@H](C)[C@H](NC(=O)[C@H](Cc1ccc(OP(=O)(O)O)cc1)NC(=O)[C@H](C)NC(=O)[C@H](C)NC(C)=O)C(=O)N[C@@H](CCCNC(=N)N)C(=O)N[C@@H](CCCCN)C(=O)N[C@@H](CCCNC(=N)N)C(=O)N[C@@H](C)C(N)=O — kcat (PTPN1; substrate; pH 7.4, catalytic domain): 37 ± 1 s⁻¹
C[C@H](NC(=O)[C@H](CO)NC(=O)[C@H](CO)NC(=O)[C@H](CCCNC(=N)N)NC(=O)[C@H](CCCNC(=N)N)NC(=O)[C@H](CCCCN)NC(=O)c1ccccc1N)C(=O)N[C@@H](CCC(N)=O)C(=O)NCCNc1ccc([N+](=O)[O-])cc1[N+](=O)[O-] — Km (MCA2; enzyme activity, substrate, FRET hydrolysis; Trypanosoma brucei; pH 7.4): 0.19 µM
CC[C@H](C)[C@H](NC(=O)[C@H](Cc1c[nH]cn1)NC(=O)c1ccccc1N)C(=O)N[C@@H](CCCNC(=N)N)C(=O)N[C@@H](CCCNC(=N)N)C(=O)N[C@@H](CCCNC(=N)N)C(=O)N[C@@H](CCCNC(=N)N)C(=O)N[C@@H](CC(=O)O)C(=O)N[C@H](C(=O)N[C@H](C(=O)N[C@H](C(=O)N[C@@H](CCC(N)=O)C(=O)NCCNc1ccc([N+](=O)[O-])cc1[N+](=O)[O-])[C@@H](C)O)C(C)C)C(C)C — kcat (FURIN; substrate; pH 7): 5.5 s⁻¹
CC(C)C[C@H](NC(=O)[C@@H](NC(=O)[C@H](CCCCN)NC(=O)[C@H](CCCCN)NC(=O)[C@H](CCCNC(=N)N)NC(=O)[C@H](CCC(N)=O)NC(=O)[C@@H](N)[C@@H](C)O)[C@@H](C)O)C(=O)NCC(=O)N[C@@H](Cc1ccccc1)C(=O)O — z-score (HLA class I histocompatibility antigen, A alpha chain allele A*26:03; direction not given): -2.27
C[C@H](NC(=O)CNC(=O)[C@H](CO)NC(=O)[C@H](CCCNC(=N)N)NC(=O)[C@H](C)NC(=O)[C@H](CCCCN)NC(=O)c1ccccc1N)C(=O)N[C@@H](CCC(N)=O)C(=O)NCCNc1ccc([N+](=O)[O-])cc1[N+](=O)[O-] — Km (MCA2; enzyme activity, substrate, FRET hydrolysis; Trypanosoma brucei; pH 7.4): 1.51 µM
CC[C@H](C)[C@H](NC(=O)[C@@H]1CCCN1C(=O)[C@H](Cc1ccc(O)cc1)NC(=O)[C@H](CCCNC(=N)N)NC(=O)[C@H](CC(C)C)NC(=O)[C@@H](NC(=O)[C@@H](N)[C@@H](C)O)[C@@H](C)O)C(=O)NCC(=O)N[C@@H](CCCCN)C(=O)O — z-score (HLA class I histocompatibility antigen, A alpha chain allele A*80:01; direction not given): 0.38
CC(C)C[C@H](NC(=O)[C@H](CCCCN)NC(=O)c1ccccc1N)C(=O)N[C@@H](CC(N)=O)C(=O)N[C@@H](CC(C)C)C(=O)N[C@@H](CCC(N)=O)C(=O)N[C@@H](Cc1ccccc1)C(=O)N[C@@H](Cc1ccccc1)C(=O)N[C@@H](C)C(=O)N[C@@H](CO)C(=O)N[C@@H](CCCCN)C(=O)N[C@@H](CCCCNc1ccc([N+](=O)[O-])cc1[N+](=O)[O-])C(=O)O — Vmax (Ribosomal processing cysteine protease Prp (prp, Staphylococcus aureus, UniProt Q2FXS9); substrate, fluorogenic peptide cleavage; 2.53% DMSO; pH 7.0, ambient, together with: enzyme 21.38 nM as dimer): 1.96 nM/s
CC(C)C[C@H](NC(=O)[C@H](CO)NC(=O)[C@H](C)NC(=O)[C@H](Cc1ccccc1)NC(=O)[C@H](CCCNC(=N)N)NC(=O)[C@H](CCCCN)NC(=O)[C@H](C)NC(=O)[C@H](CCCNC(=N)N)NC(=O)[C@H](CCCNC(=N)N)NC(=O)[C@@H]1CCCN1C(=O)[C@H](CCCNC(=N)N)NC(=O)c1ccccc1N)C(=O)N[C@@H](CCC(N)=O)C(=O)NCCNc1ccc([N+](=O)[O-])cc1[N+](=O)[O-] — kcat (FURIN; substrate; pH 7): 4.5 s⁻¹
c1ccc(CCN2CCN=C2Cc2ccccc2)cc1 — inhibition (5-hydroxytryptamine receptor 3A (HTR3A, Homo sapiens, UniProt P46098); calcium signal; HEK; 10.3 µM, together with: 5-HT 1 µM): 78 ± 2.1%
CC[C@H](C)[C@H](NC(=O)[C@H](CCCNC(=N)N)NC(=O)[C@@H](NC(=O)[C@H](Cc1c[nH]cn1)NC(=O)c1ccccc1N)C(C)C)C(=O)N[C@@H](CO)C(=O)N[C@@H](CCCNC(=N)N)C(=O)N[C@@H](CO)C(=O)N[C@@H](CC(C)C)C(=O)N[C@@H](Cc1c[nH]cn1)C(=O)N[C@@H](CCC(N)=O)C(=O)N[C@@H](CCC(N)=O)C(=O)NCCNc1ccc([N+](=O)[O-])cc1[N+](=O)[O-] — kcat (FURIN; substrate; pH 7): 3 s⁻¹
CC(C)C[C@H](NC(=O)CNC(=O)[C@H](CC(=O)O)NC(=O)[C@H](CC(C)C)NC(=O)[C@H](CC(C)C)NC(=O)[C@H](Cc1ccc(O)cc1)NC(=O)[C@H](CC(C)C)NC(=O)[C@H](C)N)C(=O)N[C@@H](CCCNC(=N)N)C(=O)O — z-score (HLA class I histocompatibility antigen, A alpha chain allele A*26:03; direction not given): -1.01
CC(=O)N[C@@H](CC(=O)O)C(=O)N[C@H](C(=O)N[C@@H](C)C(=O)N[C@@H](CC(=O)O)C(=O)N[C@H](C(=O)N[C@@H](Cc1ccc(OP(=O)(O)O)cc1)C(=O)N[C@@H](C)C(=O)N[C@@H](C)C(N)=O)C(C)C)[C@@H](C)O — kcat/Km (PTPN1; substrate, continuous UV; pH 7.4): 3.5e+06 M⁻¹ s⁻¹
CC[C@H](C)[C@H](NC(=O)[C@H](Cc1c[nH]cn1)NC(=O)CNC(=O)[C@H](CCC(=O)O)NC(=O)[C@H](CC(C)C)NC(=O)[C@H](CC(=O)O)NC(=O)[C@H](CC(C)C)NC(=O)[C@@H](N)CC(C)C)C(=O)N[C@@H](CC(C)C)C(=O)O — z-score (HLA class I histocompatibility antigen, A alpha chain allele A*80:01; direction not given): 0.38
CC(=O)N[C@@H](CCC(=O)O)C(=O)N[C@@H](C)C(=O)N[C@@H](CC(=O)O)C(=O)N[C@H](C(=O)N[C@@H](C)C(=O)N[C@@H](Cc1ccc(OP(=O)(O)O)cc1)C(=O)N[C@@H](C)C(=O)N[C@@H](C)C(N)=O)[C@@H](C)O — kcat (Receptor-type tyrosine-protein phosphatase alpha, residues 224-802 (Homo sapiens, UniProt P18433); phosphatase activity, substrate; pH 7.4, together with: phosphotyrosine peptide): 26 ± 1 s⁻¹
CCOC(=O)c1c(-c2ccc(Cl)cc2Cl)n(-c2nc(-c3ccc(Cl)cc3)c3c(NC(=O)c4ccccc4)nnc-3[nH]2)[nH]c1=O — LD50 (male Wistar rat; intraperitoneal): 100 mg/kg
CC(C)C[C@H](NC(=O)[C@H](CS)NC(=O)[C@H](Cc1ccc(O)cc1)NC(=O)[C@H](Cc1ccccc1)NC(=O)[C@@H](NC(=O)[C@@H]1CCCN1C(=O)[C@H](Cc1ccc(O)cc1)NC(=O)[C@@H](N)CC(C)C)[C@@H](C)O)C(=O)N[C@@H](Cc1ccccc1)C(=O)O — z-score (HLA class I histocompatibility antigen, C alpha chain, allele C*04:01 (Homo sapiens, UniProt P10321); direction not given): -0.525
C[C@H](NC(=O)[C@H](CCCNC(=N)N)NC(=O)c1ccccc1N)C(=O)N[C@@H](CCCNC(=N)N)C(=O)N[C@@H](CO)C(=O)N[C@@H](CO)C(=O)N[C@@H](C)C(=O)N[C@@H](CCC(N)=O)C(=O)NCCNc1ccc([N+](=O)[O-])cc1[N+](=O)[O-] — Km (MCA2; enzyme activity, substrate, FRET hydrolysis; Trypanosoma brucei; pH 7.4): 0.37 µM
C[C@H](NC(=O)[C@H](C)NC(=O)[C@H](Cc1ccc(OP(=O)(O)O)cc1)NC(=O)[C@H](Cc1ccccc1)NC(=O)[C@H](CCC(=O)O)NC(=O)[C@H](Cc1cc(F)c(O)c(F)c1)NC(=O)[C@H](CCC(=O)O)NC(=O)[C@@H](N)CCCNC(=N)N)C(N)=O — kcat/Km (PTPN1; enzyme activity, substrate; pH 7.4): 3.2e+06 M⁻¹ s⁻¹
CC(=O)N[C@@H](C)C(=O)N[C@@H](Cc1c[nH]c2ccccc12)C(=O)N[C@@H](CO)C(=O)N[C@@H](Cc1ccc(OP(=O)(O)O)cc1)C(=O)N[C@@H](C)C(=O)N[C@@H](CC(=O)O)C(=O)N[C@@H](Cc1ccc(OP(=O)(O)O)cc1)C(=O)N[C@@H](C)C(=O)N[C@@H](C)C(N)=O — kcat/Km (PTPN1; substrate, continuous UV; pH 7.4): 2.35e+07 M⁻¹ s⁻¹
CC(C)[C@H](NC(=O)[C@H](Cc1c[nH]cn1)NC(=O)c1ccccc1N)C(=O)N[C@@H](CCCNC(=N)N)C(=O)N[C@@H](CCCCN)C(=O)N[C@@H](CCCNC(=N)N)C(=O)N[C@@H](CCCNC(=N)N)C(=O)N[C@@H](C)C(=O)N[C@@H](CC(=O)O)C(=O)N1CCC[C@H]1C(=O)N[C@@H](CC(=O)O)C(=O)N[C@@H](CCC(N)=O)C(=O)NCCNc1ccc([N+](=O)[O-])cc1[N+](=O)[O-] — kcat (FURIN; substrate; pH 7): 1 s⁻¹
